Measurements of several laboratories.
± gives the spread as reported.
PTPN1: Tyrosine-protein phosphatase non-receptor type 1 (PTPN1, Homo sapiens, UniProt P18031)

Protein sequences, listed by entry. Tags and fused reporters are not part of them. Lines headed by an entry give the natural chain unless they say otherwise; changes in a name come on top. Residues count along the entry.
UniProt P18031, 1-321 limits assumed: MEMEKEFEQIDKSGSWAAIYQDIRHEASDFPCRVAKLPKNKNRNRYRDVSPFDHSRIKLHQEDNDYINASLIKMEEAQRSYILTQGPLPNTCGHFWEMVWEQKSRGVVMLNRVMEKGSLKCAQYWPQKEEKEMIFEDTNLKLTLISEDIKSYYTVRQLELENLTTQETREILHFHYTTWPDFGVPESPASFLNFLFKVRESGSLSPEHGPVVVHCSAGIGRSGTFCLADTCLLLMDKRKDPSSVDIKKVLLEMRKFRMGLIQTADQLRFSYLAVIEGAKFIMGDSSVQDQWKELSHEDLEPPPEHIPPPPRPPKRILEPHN
UniProt Q7XJR9, whole entry: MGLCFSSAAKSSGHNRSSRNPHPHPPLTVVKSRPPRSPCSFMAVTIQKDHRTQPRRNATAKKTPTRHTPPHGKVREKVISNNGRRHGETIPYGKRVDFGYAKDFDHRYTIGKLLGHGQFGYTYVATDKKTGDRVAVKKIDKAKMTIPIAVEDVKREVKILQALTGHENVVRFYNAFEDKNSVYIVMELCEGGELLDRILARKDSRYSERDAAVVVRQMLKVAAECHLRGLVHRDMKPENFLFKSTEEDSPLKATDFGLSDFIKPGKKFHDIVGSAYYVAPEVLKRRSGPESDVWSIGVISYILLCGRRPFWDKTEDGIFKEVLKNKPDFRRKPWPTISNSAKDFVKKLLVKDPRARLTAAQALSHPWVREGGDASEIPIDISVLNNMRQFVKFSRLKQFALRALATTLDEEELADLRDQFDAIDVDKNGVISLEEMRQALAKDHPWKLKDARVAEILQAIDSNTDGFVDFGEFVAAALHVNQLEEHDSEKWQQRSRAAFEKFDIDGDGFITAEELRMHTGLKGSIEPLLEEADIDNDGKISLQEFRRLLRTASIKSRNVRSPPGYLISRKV
UniProt P12821, 30-1306 limits assumed: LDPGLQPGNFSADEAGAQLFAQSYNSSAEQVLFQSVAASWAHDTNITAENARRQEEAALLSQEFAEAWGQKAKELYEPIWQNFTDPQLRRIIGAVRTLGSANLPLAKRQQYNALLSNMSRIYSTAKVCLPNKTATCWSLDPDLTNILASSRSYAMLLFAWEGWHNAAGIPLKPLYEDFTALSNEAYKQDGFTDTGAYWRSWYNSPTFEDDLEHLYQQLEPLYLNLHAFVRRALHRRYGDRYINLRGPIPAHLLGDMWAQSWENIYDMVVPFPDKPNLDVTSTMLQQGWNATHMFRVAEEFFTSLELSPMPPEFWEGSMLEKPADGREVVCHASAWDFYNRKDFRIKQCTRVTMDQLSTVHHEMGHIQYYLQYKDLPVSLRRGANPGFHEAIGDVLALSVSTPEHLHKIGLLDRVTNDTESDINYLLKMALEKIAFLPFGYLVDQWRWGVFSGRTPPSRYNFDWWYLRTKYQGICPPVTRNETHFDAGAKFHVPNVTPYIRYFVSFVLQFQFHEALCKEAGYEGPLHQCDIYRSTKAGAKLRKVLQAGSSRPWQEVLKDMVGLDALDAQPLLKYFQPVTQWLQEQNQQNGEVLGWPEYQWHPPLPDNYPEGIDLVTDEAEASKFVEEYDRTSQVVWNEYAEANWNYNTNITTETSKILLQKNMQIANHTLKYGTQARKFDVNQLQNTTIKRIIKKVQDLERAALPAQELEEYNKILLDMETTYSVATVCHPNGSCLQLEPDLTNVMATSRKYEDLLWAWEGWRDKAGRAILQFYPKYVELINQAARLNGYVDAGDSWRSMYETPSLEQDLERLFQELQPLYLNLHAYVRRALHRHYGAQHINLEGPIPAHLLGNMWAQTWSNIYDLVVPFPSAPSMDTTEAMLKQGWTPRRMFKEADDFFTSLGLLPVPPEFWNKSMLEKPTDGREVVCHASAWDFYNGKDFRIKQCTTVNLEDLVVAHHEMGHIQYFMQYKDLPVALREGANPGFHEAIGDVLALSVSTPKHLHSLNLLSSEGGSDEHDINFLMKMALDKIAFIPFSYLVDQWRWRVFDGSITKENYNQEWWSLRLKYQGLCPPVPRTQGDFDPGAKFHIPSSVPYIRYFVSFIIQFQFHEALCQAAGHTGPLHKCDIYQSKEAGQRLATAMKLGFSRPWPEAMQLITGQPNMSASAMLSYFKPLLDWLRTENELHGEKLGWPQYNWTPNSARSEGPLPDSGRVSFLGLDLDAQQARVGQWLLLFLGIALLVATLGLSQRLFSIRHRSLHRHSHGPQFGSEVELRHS
UniProt O15151, 23-111 limits assumed: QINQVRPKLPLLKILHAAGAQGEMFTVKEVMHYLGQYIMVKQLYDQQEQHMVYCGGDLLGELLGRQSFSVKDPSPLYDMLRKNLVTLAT
UniProt Q16539, whole entry: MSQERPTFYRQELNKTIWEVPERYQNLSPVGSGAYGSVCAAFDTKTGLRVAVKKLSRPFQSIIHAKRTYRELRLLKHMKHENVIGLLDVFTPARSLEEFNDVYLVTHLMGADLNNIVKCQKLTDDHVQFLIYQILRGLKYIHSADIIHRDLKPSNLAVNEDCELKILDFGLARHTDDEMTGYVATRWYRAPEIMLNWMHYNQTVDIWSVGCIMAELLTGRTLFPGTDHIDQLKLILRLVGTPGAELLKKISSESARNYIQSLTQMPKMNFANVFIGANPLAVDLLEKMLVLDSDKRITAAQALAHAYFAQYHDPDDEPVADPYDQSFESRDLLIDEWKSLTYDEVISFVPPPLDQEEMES
UniProt P16083, whole entry: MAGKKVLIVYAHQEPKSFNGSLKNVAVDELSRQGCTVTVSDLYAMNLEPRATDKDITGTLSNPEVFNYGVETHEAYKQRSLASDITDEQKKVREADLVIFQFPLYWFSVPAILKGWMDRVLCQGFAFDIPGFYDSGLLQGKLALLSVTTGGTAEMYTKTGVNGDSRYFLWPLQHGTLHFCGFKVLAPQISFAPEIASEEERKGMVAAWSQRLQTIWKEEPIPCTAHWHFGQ
UniProt P26358, whole entry: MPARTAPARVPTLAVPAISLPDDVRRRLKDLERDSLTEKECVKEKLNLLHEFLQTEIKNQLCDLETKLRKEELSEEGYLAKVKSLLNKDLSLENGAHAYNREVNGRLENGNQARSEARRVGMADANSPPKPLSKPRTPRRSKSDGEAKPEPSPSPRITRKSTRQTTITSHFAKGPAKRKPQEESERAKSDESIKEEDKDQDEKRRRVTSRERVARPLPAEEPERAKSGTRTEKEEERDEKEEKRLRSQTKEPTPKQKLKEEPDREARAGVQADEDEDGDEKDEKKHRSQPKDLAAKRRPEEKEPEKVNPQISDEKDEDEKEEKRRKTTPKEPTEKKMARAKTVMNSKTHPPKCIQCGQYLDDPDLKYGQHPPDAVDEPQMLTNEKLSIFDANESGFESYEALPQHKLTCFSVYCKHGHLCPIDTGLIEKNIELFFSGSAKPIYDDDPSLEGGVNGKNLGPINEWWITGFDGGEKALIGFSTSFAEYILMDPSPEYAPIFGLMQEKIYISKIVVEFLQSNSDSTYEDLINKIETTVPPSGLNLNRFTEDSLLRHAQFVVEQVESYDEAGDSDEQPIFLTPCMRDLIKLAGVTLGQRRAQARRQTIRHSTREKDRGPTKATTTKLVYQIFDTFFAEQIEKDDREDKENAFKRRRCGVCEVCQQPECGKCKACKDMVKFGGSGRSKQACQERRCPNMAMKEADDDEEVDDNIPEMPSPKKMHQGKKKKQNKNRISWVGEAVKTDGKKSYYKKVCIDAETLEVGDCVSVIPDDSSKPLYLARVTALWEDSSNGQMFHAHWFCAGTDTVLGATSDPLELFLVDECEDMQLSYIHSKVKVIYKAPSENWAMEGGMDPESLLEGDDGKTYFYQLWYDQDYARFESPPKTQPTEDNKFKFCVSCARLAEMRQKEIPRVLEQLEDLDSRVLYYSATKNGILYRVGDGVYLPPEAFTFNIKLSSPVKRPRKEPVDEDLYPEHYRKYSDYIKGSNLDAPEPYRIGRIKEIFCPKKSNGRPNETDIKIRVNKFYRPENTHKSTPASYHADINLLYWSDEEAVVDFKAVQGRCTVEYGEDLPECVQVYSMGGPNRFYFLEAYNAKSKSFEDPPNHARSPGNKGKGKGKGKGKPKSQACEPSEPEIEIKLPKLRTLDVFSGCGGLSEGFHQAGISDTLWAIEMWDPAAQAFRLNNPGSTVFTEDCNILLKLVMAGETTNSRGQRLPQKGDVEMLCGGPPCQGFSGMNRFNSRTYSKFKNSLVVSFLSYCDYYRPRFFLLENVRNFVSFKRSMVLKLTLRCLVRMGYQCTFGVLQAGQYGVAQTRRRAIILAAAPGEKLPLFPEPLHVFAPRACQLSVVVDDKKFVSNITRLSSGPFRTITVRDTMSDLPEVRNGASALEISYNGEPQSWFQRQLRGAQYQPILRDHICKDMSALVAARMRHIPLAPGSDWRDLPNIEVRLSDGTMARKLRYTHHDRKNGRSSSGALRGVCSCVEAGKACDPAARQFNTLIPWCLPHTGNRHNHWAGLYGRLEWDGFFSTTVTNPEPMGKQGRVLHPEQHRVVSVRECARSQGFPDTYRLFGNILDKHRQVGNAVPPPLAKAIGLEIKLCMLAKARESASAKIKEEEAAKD
UniProt P06855, whole entry: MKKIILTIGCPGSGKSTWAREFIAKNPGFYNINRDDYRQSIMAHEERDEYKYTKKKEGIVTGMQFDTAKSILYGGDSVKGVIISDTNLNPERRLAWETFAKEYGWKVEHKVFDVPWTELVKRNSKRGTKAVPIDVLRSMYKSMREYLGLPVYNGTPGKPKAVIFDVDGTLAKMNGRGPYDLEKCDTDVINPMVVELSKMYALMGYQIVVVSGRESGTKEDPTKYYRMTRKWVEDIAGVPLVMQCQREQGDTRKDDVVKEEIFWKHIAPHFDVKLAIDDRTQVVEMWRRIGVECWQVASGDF
UniProt P61981, whole entry: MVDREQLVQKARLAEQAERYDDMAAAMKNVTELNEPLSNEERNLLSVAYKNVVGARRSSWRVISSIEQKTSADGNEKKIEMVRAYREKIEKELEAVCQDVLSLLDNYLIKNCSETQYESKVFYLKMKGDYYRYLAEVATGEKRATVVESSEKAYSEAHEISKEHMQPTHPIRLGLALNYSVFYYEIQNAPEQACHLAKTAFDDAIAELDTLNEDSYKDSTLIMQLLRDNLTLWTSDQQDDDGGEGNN
UniProt Q9BY41, whole entry: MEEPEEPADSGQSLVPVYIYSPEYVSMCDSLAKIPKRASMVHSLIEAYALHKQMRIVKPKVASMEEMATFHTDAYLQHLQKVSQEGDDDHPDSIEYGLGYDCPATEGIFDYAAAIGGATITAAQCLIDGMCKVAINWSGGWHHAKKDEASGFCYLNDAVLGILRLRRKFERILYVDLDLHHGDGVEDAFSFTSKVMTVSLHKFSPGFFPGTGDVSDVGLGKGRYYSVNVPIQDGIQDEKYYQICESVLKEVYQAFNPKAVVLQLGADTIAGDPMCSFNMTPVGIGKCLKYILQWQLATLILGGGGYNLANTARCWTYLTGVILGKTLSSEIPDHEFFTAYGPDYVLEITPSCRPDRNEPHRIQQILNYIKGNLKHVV
UniProt P48729, whole entry: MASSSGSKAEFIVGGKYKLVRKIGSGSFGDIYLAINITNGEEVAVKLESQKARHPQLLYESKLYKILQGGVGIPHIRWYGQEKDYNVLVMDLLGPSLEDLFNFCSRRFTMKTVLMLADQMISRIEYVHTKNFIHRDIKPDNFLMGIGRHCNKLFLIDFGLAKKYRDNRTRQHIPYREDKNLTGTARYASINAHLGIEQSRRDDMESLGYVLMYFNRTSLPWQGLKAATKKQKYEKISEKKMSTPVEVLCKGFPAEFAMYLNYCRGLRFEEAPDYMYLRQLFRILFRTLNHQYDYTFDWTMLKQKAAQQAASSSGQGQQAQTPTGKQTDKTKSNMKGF

`N#Cc1c(-c2ccc(Cl)cc2Cl)n(-c2nc(-c3ccc(Cl)cc3)c3c(NC(=O)c4ccccc4)nnc-3[nH]2)[nH]c1=O` gave a cell growth of 25.7% (SR; SRB; 10 µM).
The relative phosphorylation of `CC[C@H](C)[C@H](NC(=O)[C@H](CCCNC(=N)N)NC(=O)[C@H](CO)NC(=O)[C@@H](NC(=O)[C@@H](NC(=O)[C@H](CCCCN)NC(=O)[C@@H](N)C(C)C)[C@@H](C)CC)[C@@H](C)CC)C(=O)N[C@@H](Cc1ccccc1)C(=O)N[C@@H](CO)C(=O)N[C@@H](CCC(N)=O)C(=O)N[C@@H](CCCNC(=N)N)C(=O)N[C@@H](CO)C(=O)N[C@@H](Cc1ccccc1)C(=O)N[C@@H](CCCNC(=N)N)C(=O)N[C@@H](CCCNC(=N)N)C(=O)O` is reported as 10 fold (CPK16 (Arabidopsis thaliana, UniProt Q7XJR9); peptide phosphorylation, substrate, scintillation proximity; 20 µM, 24 min, with: 10 µM ATP; relative to: no peptide control, higher = more phosphorylation).
For `COc1ccc2c(CC(=O)N[C@@H](CCCNC(=N)N)C(=O)N3CCC[C@H]3C(=O)N3CCC[C@H]3C(=O)NCC(=O)N[C@@H](Cc3ccccc3)C(=O)N[C@@H](CO)C(=O)N[C@@H](C)C(=O)N[C@@H](Cc3ccccc3)C(=O)N[C@@H](CCCCNc3ccc([N+](=O)[O-])cc3[N+](=O)[O-])C(=O)O)cc(=O)oc2c1`, the Vmax was 395 ± 70 AFU/min/µg protein (ACE (Homo sapiens, UniProt P12821); substrate; with: 5 to 75 µM).
For `COc1cccc([C@@H]2N=C(c3ccc(OC)cc3OC(C)C)N(C(=O)N3CCNC(=O)C3)[C@@H]2c2ccc(Cl)cc2)c1` (relative stereo), the ΔH was -7.7 ± 2 kcal/mol (Protein Mdm4 (MDM4, Homo sapiens, UniProt O15151); isothermal titration calorimetry; 298 K).
`CC(C)C[C@H](NC(=O)[C@H](C)NC(=O)[C@H](CCCNC(=N)N)NC(=O)[C@H](CCCNC(=N)N)NC(=O)[C@H](CCCNC(=N)N)NC(=O)[C@H](C)NC(=O)[C@H](CC(C)C)NC(=O)[C@H](CCCNC(=N)N)NC(=O)[C@H](CO)NC(=O)[C@H](CCCCN)NC(=O)[C@H](CO)NC(=O)Cn1cc(COC(=O)[C@]2(C)C=C(C(=O)OC(C)(C)C)C(=O)CC2)nn1)C(=O)O` has a fraction bound of -0.0207 (MAPK14 (Homo sapiens, UniProt Q16539); binding, competitor, fluorescence polarization; 2.5 µM; higher = less displacement).
`CN(C)CCNC(=O)c1cc([N+](=O)[O-])cc2ccc(-c3ccccc3)nc12` — result for “binding free energy”: -42.5 kJ/mol (NQO2 (Homo sapiens, UniProt P16083); from IC50 by Cheng-Prusoff).
`CC(C)C[C@H](NC(=O)[C@@H](NC(=O)[C@H](CC(C)C)NC(=O)[C@H](CS)NC(=O)CNS(=O)(=O)c1cccc2c(N(C)C)cccc12)C(C)C)C(=O)O` gave a kcat of 0.039 ± 0.012 s⁻¹ (geranylgeranyltransferase type-I (Rattus norvegicus, UniProt P53610+Q04631); substrate, fluorescence; 30 °C, GGPP 10 µM/enzyme 10 nM, with: SmgGDS-558 5 µM).
With `CCOC(=O)c1c(-c2ccc(Cl)cc2Cl)n(-c2nc(-c3ccc(Cl)cc3)c3c(NC(=O)c4ccccc4)nnc-3[nH]2)[nH]c1=O` the cell growth was 4.14% (SW-620; SRB; 10 µM; relative to: untreated).
`CC(=O)C12NC(C)(C)CC1(C)C(=O)C1=C2c2c(c3c4n2C(C)(C)CC2=C4C4(CC(C)(C)NC(C)(C4)C2=O)CC3(C)C)C(=O)C(C)(C)N1` (single isomer, unassigned) gave an inhibition of 61 ± 0.04% (SCN2A (Homo sapiens, UniProt Q99250); sodium current; 40 µM).
`NC12CC3CC(F)(CC(C1)c1ccccc13)C2` — result for “IC50 fold shift”: about 5 fold (Glutamate NMDA receptor; Grin1/Grin2a (Grin1/Grin2a, Rattus norvegicus, UniProt P35439+Q00959); ion current, channel blocker, whole-cell patch clamp; with: 0.2 mM Mg2+; relative to: IC50 with over without Mg2+).
`CC(=O)N[C@@H](C)C(=O)N[C@@H](Cc1ccc(OP(=O)(O)O)cc1)C(=O)N[C@@H](Cc1ccc(OP(=O)(O)O)cc1)C(=O)N[C@@H](Cc1c[nH]c2ccccc12)C(=O)N[C@H](C(=O)N[C@@H](C)C(=O)N[C@@H](Cc1ccc(OP(=O)(O)O)cc1)C(=O)N[C@@H](C)C(=O)N[C@@H](C)C(N)=O)[C@@H](C)O` gave a Km of 1.7 ± 0.2 µM (PTPN1; substrate, continuous UV; pH 7.4, multiply phosphorylated peptides apparent).
`CCc1c(C#N)c(SC(C(N)=O)c2ccc(F)cc2)nc(N2CCC(N(C)C)CC2)c1C#N` (stereo not drawn) has a Dmax of 92 ± 1% (DNMT1 (Homo sapiens, UniProt P26358); degrader, Western blot; HCT-116; 1 µM, 24 h; relative to: DMSO).
`C=C(C)C(=O)Nc1ccc(-c2c(-c3ccc(Oc4nccc(C)n4)c(F)c3)c3c(N)ncnc3n2C)cc1`: “area over GR curve” 0.991 (AN3 CA; cell growth, CellTiter-Glo; 120 h, unit not given; relative to: untreated growth rate, higher = stronger inhibition).
`CC(=O)N[C@@H](CC(=O)O)C(=O)N[C@H](C(=O)N[C@@H](C)C(=O)N[C@@H](CC(=O)O)C(=O)N[C@H](C(=O)N[C@@H](Cc1ccc(OP(=O)(O)O)cc1)C(=O)N[C@@H](CC(=O)O)C(=O)N[C@@H](Cc1c[nH]c2ccccc12)C(=O)N[C@@H](CCC(=O)O)C(=O)N[C@@H](Cc1ccccc1)C(N)=O)C(C)C)[C@@H](C)O` gave a Km of 5.2 ± 1 µM (PTPN1; substrate, continuous UV; pH 7.4, multiply phosphorylated peptides apparent).
With `CC/C=C\C/C=C\CCC/C=C/C=C/C=C\CCCC(=O)O` the IC50 was over 100 µM (pseT (Enterobacteria phage T4, UniProt P06855); enzyme activity, inhibitor).
For `CC[C@H](C)[C@H](NC(=O)[C@H](CCCCN)NC(=O)[C@H](CCCNC(=N)N)NC(=O)[C@H](CCCCN)NC(C)=O)C(=O)N[C@@H](CC(C)C)C(=O)N[C@@H](CO)C(=O)N[C@@H](COP(=O)(O)O)C(=O)N[C@@H](CC(=O)O)C(=O)N[C@@H](CC(=O)O)C(=O)N[C@@H](CO)C(=O)N[C@@H](CC(C)C)C(=O)N[C@@H](CCCNC(=N)N)C(=O)N[C@@H](CO)C(N)=O`, the ΔH was -6.1 kcal/mol (YWHAG (Homo sapiens, UniProt P61981); isothermal titration calorimetry; pH 7.4, 37 °C).
With `CC(=O)NCCCC[C@H](NC(=O)[C@H](CCCCNC(C)=O)NC(=O)[C@H](Cc1c[nH]cn1)NC(=O)[C@H](CCCNC(=N)N)NC(C)=O)C(=O)Nc1ccc2c(C)cc(=O)oc2c1` the kcat was 0.34 ± 0.06 s⁻¹ (HDAC8 (Homo sapiens, UniProt Q9BY41); deacetylation, substrate; 25 °C, with: 150 nM enzyme).
For `Cc1ccc(-c2n[nH]cc2-c2ccnc3ccccc23)nc1`, the selectivity ratio was over 3 (CSNK1A1 (Homo sapiens, UniProt P48729); relative to: IC50 CSNK1A1 over IC50 Yck2).

For quick reference, copied from above:
`CCc1c(C#N)c(SC(C(N)=O)c2ccc(F)cc2)nc(N2CCC(N(C)C)CC2)c1C#N` (stereo not drawn) has a Dmax of 92 ± 1% (DNMT1 (Homo sapiens, UniProt P26358); degrader, Western blot; HCT-116; 1 µM, 24 h; relative to: DMSO).
`C=C(C)C(=O)Nc1ccc(-c2c(-c3ccc(Oc4nccc(C)n4)c(F)c3)c3c(N)ncnc3n2C)cc1`: “area over GR curve” 0.991 (AN3 CA; cell growth, CellTiter-Glo; 120 h, unit not given; relative to: untreated growth rate, higher = stronger inhibition).
`CC(=O)N[C@@H](CC(=O)O)C(=O)N[C@H](C(=O)N[C@@H](C)C(=O)N[C@@H](CC(=O)O)C(=O)N[C@H](C(=O)N[C@@H](Cc1ccc(OP(=O)(O)O)cc1)C(=O)N[C@@H](CC(=O)O)C(=O)N[C@@H](Cc1c[nH]c2ccccc12)C(=O)N[C@@H](CCC(=O)O)C(=O)N[C@@H](Cc1ccccc1)C(N)=O)C(C)C)[C@@H](C)O` gave a Km of 5.2 ± 1 µM (PTPN1; substrate, continuous UV; pH 7.4, multiply phosphorylated peptides apparent).
